Published values pooled from the literature.
A part holds a random share of what one study measured.
Chain of UniProt P49761 (whole entry, looked up): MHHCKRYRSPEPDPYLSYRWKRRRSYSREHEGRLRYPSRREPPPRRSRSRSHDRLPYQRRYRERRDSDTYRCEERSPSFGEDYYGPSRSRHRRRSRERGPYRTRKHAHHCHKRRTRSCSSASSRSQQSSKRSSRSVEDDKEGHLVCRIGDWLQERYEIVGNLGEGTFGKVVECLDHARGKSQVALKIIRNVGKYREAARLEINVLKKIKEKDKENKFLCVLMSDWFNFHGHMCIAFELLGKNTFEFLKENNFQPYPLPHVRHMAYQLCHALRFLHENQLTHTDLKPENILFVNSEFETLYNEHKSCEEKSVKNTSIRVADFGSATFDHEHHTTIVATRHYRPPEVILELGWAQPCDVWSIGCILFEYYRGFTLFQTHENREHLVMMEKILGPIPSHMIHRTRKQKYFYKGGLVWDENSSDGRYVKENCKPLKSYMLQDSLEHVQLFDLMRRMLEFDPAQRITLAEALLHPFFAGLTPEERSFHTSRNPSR
Chain of UniProt Q13237 (whole entry, looked up): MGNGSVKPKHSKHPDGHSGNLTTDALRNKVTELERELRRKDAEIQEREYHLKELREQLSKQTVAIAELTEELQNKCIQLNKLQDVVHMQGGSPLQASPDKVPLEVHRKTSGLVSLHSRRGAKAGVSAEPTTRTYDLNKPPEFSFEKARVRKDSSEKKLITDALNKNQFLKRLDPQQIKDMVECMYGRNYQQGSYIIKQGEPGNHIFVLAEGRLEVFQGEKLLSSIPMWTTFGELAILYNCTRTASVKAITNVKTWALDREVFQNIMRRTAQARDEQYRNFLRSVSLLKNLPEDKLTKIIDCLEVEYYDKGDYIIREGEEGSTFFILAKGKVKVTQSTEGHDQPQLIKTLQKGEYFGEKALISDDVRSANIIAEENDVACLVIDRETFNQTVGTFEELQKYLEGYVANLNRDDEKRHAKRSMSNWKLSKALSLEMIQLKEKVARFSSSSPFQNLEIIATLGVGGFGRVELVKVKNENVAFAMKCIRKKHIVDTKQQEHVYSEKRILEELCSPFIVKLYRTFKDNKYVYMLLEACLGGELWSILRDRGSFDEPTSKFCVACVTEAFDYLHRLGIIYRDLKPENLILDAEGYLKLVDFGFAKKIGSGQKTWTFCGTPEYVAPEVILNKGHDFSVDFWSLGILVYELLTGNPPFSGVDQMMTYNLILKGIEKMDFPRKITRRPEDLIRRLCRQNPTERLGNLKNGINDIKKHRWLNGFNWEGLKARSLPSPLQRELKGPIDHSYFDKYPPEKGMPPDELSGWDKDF
Chain of UniProt Q02750 (whole entry, looked up): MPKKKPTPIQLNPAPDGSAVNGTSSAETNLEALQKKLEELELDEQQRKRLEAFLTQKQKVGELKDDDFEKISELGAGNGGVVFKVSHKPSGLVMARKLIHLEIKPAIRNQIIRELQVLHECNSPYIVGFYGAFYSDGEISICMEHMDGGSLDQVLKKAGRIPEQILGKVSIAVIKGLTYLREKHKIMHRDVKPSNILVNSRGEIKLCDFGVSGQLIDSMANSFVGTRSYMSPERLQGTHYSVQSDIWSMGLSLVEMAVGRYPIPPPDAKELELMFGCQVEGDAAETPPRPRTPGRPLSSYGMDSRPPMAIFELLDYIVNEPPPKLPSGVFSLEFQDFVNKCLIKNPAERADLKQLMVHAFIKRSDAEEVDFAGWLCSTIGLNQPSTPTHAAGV
Chain of UniProt Q86UE8 (whole entry, looked up): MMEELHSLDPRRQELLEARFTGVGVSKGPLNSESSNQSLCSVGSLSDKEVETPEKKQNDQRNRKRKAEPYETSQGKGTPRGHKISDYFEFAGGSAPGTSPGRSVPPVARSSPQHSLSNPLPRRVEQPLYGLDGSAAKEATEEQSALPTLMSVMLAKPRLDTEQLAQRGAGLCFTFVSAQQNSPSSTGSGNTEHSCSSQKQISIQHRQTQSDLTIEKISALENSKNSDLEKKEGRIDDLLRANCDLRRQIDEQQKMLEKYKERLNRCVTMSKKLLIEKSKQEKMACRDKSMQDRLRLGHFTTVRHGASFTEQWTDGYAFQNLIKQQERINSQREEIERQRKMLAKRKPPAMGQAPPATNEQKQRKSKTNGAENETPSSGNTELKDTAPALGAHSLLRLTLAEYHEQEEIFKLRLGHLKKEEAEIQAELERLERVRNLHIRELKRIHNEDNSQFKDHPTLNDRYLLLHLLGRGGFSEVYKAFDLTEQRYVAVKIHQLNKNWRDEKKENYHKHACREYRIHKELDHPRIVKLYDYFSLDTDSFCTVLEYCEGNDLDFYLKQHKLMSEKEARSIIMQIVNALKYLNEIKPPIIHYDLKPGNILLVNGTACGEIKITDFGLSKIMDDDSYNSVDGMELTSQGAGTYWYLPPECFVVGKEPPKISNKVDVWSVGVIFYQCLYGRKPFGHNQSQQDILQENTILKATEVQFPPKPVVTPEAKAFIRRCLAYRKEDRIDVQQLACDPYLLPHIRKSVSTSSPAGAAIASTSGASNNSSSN
Chain of UniProt P42681 (whole entry, looked up): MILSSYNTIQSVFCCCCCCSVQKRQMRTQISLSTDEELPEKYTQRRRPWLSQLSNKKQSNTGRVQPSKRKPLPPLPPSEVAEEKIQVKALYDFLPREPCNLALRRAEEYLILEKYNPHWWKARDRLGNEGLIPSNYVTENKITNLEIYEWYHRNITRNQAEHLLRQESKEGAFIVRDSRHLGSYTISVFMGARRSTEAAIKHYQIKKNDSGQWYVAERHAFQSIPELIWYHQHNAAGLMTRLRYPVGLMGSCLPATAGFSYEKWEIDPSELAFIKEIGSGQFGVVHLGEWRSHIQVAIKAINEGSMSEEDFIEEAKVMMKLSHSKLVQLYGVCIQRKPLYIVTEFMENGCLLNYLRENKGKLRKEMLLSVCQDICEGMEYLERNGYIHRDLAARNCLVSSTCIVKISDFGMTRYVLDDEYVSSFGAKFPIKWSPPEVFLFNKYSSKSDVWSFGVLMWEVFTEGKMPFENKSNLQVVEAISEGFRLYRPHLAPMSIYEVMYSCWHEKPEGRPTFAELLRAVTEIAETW
Chain of UniProt O75914 (whole entry, looked up): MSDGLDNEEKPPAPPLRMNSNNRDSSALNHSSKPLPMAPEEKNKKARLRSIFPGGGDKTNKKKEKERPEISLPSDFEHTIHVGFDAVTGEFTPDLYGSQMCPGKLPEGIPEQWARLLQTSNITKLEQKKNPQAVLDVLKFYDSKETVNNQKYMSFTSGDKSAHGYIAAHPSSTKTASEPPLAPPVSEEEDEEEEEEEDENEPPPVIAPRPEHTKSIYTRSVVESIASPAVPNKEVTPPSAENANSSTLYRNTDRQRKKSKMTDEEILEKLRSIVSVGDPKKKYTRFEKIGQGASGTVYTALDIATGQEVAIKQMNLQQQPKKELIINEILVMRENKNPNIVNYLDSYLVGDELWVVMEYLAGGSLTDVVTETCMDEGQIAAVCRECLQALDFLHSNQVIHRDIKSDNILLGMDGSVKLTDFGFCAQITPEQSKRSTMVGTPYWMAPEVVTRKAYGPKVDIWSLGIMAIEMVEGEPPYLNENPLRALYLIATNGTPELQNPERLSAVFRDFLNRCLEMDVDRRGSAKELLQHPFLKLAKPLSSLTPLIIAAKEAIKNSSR
Chain of UniProt P28482 (whole entry, looked up): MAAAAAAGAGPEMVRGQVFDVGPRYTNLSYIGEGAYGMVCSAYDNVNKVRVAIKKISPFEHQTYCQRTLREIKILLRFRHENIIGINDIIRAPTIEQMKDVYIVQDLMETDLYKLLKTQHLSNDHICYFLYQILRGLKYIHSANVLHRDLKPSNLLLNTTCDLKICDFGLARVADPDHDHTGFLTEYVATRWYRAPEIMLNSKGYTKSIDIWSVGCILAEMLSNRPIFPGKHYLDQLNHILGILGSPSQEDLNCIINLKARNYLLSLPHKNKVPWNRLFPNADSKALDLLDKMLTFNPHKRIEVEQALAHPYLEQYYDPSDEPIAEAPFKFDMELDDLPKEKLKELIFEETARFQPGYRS
Chain of UniProt P50750 (whole entry, looked up): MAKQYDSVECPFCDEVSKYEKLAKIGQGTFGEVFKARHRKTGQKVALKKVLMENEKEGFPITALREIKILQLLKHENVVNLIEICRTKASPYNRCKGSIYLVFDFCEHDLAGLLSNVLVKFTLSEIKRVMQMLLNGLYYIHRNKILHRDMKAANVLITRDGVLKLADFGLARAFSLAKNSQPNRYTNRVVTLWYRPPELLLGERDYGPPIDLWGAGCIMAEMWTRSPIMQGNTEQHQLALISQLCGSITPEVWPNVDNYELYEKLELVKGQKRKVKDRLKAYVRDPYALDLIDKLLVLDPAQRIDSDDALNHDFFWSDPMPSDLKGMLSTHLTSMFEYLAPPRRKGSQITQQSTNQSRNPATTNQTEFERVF

Sample 1 — effect on: enzyme activity; action: inhibitor; concentration: 0.5 µM; baseline: control
SMILES: CC(C)(C)n1nc(Cc2cccc3ccccc23)c2c(N)ncnc21
target | remaining activity [%]
TLK2 (Homo sapiens, UniProt Q86UE8) | 94.3
CLK3 (Homo sapiens, UniProt P49761) | 96.2
GRK4 (Homo sapiens, UniProt P32298) | 105
Cyclin-dependent kinase 9, with cyclin K (CDK9, Homo sapiens, UniProt P50750) | 81.4
PAK3 (Homo sapiens, UniProt O75914) | 92.4
ROCK1 (Homo sapiens, UniProt Q13464) | 93.4
TXK (Homo sapiens, UniProt P42681) | 28.6
CDC42BPB (Homo sapiens, UniProt Q9Y5S2) | 96.3
KDR (Homo sapiens, UniProt P35968) | 94.9
MAPK11 (Homo sapiens, UniProt Q15759) | 95.2
MAP2K1 (Homo sapiens, UniProt Q02750) | 101
MARK4 (Homo sapiens, UniProt Q96L34) | 87.2
MAPK1 (Homo sapiens, UniProt P28482) | 85.9
PRKG2 (Homo sapiens, UniProt Q13237) | 91

Sample 2 — action: agonist
Target: Beta-1 adrenergic receptor (ADRB1, Homo sapiens, UniProt P08588)
Chain of UniProt P08588 (whole entry, looked up): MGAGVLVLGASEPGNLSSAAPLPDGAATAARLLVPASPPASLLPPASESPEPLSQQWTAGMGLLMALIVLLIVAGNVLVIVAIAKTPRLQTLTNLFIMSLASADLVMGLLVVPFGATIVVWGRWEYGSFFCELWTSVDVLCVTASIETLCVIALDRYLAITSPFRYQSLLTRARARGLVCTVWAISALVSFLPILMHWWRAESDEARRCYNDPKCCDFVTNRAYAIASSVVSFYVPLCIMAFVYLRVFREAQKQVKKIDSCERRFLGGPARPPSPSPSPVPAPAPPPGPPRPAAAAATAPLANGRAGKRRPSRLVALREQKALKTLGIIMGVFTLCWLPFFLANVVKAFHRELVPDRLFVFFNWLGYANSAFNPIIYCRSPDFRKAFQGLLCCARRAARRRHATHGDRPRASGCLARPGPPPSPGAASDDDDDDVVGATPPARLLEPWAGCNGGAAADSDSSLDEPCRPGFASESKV
SMILES | EC50 [µM]
CC(C)(C)NCC(O)COc1ccccc1OCC1CCCO1 (stereo not shown) | 0.0332
c1cc(-c2cc3c(ccn3Cc3ccncc3)c(N3CCOCC3)n2)c2cn[nH]c2c1 | ≥ 100
Nc1nc(N)c2nc(-c3cccc(O)c3)cnc2n1 | ≥ 100
COCc1nc(NCCc2nc(-c3ccccn3)no2)c2cnn(C)c2n1 | ≥ 100
CC(C)SCC[C@@H](N)[C@H](O)C(=O)NNC(=O)c1cccc(Cl)c1 | ≥ 100
Cc1[nH]c2ccc(C(=O)N3CCN(c4ccccc4Cl)CC3)cc2c1C | ≥ 100
O=C(Nc1ccc([C@@H](O)[C@H]2COCC(=O)N2CCCc2ccccc2)cc1)c1cnccn1 | ≥ 100
COc1ccccc1-c1ccc2ncc(Nc3cc(F)cc(N4CCOCC4)c3)n2n1 | ≥ 100

Sample 3 — cell line: A-375; concentration: 100 µM; time: 36 h
Structure (SMILES) | viability [%]
Cc1cc(C2CCCCC2)n(O)c(=O)c1 | 29.7
O=C1CN2Cc3c(ccc(Cl)c3Cl)N=C2N1 | 77.7
CC(=O)Oc1cc(C)c(OC(C)=O)c2ccccc12 | 4.04
CN(C)CC/C=C1/c2ccccc2COc2ccc(CC(=O)O)cc21 | 107

Mixed results
Compound | tested on | assay | setting | endpoint | result
Cn1cncc1[C@@](O)(COc1ccc(C#N)cc1-c1ccc(OC(F)(F)F)cc1)c1ccc(C#N)cc1 | HEK293T | high-content imaging | 10 µM, 24 h | cells with healthy nuclei | 64%
CCC(=O)N[C@H]1CC[C@@H](C(=O)N(C)c2ccc(-c3nc4ccccc4o3)cc2)C1 | CDKL1 (Homo sapiens, UniProt Q00532) | cell-free assay, competition with immobilised ligand | 1 µM | remaining binding | 95%

Excerpt of the above (mixed results):
Compound | tested on | assay | setting | endpoint | result
CCC(=O)N[C@H]1CC[C@@H](C(=O)N(C)c2ccc(-c3nc4ccccc4o3)cc2)C1 | CDKL1 (Homo sapiens, UniProt Q00532) | cell-free assay, competition with immobilised ligand | 1 µM | remaining binding | 95%
Cn1cncc1[C@@](O)(COc1ccc(C#N)cc1-c1ccc(OC(F)(F)F)cc1)c1ccc(C#N)cc1 | HEK293T | high-content imaging | 10 µM, 24 h | cells with healthy nuclei | 64%
